Experimental data of several laboratories.
A part holds a random share of what one study measured. Substitutions count along the parent as printed.

Sample 1
Target: Histone acetyltransferase KAT6A, both winged helices, GST fusion (KAT6A, Homo sapiens, UniProt Q92794, residues 1-181)
Technique: protein binding microarray
Molecule type: double-stranded DNA, one strand shown
Sample: in vitro
Tested at: not given
Setting: 8-mer, flanks averaged, mean of 2 arrays, mostly near background
Relative to: not given
Reading: higher = stronger binding
Quantity: E-score
Construct (chain): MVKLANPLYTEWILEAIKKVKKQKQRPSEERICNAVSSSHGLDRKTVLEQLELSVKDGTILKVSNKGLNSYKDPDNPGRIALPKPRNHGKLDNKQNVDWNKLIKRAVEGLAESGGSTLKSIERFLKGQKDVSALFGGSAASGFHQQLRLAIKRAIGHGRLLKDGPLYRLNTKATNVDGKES
Oligonucleotide = TCAACCCA; value = -0.202
Oligonucleotide = GCTAGCGA; value = 0.0115
Oligonucleotide = TACGTTCA; value = -0.0858
Oligonucleotide = TAGATCCA; value = -0.171
Oligonucleotide = CATAAGGC; value = 0.072
Oligonucleotide = ACTGGGTC; value = -0.194
Oligonucleotide = AATCTAAA; value = -0.184
Oligonucleotide = ATAAAAGC; value = 0.0525
Oligonucleotide = CACGCATG; value = 0.0383
Oligonucleotide = CGTCAAGC; value = 0.0532
Oligonucleotide = ATGCTTGA; value = -0.121
Oligonucleotide = CGCTCATC; value = 0.227
Oligonucleotide = ACCTATTG; value = -0.187
Oligonucleotide = CGTCACCA; value = -0.0262
Oligonucleotide = CGTTCTGC; value = 0.105
Oligonucleotide = AGCCGGCC; value = 0.171
Oligonucleotide = AATGGCCA; value = -0.191
Oligonucleotide = ACTGCGCA; value = 0.235
Oligonucleotide = AGTAAAGG; value = -0.0303

Sample 2
Target: PABPC1L2, full length, GST fusion (mouse, UniProt A0ABA7IW68)
Technique: RNAcompete
Molecule type: RNA
Sample: in vitro
Tested at: 20 nM
Setting: 7-mer, probes averaged, single round
Relative to: mean of 7-mers
Reading: higher = stronger binding
Quantity: 7-mer Z-score
Residues (chain): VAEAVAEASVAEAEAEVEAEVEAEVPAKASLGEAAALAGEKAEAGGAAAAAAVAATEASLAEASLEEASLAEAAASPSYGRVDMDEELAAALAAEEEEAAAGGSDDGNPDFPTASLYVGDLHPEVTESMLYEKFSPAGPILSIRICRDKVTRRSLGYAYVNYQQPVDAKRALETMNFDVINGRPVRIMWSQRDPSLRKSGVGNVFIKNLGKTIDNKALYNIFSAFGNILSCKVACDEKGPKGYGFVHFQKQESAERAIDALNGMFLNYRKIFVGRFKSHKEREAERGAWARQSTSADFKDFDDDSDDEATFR
Oligonucleotide = GGCGCCU; value = -0.336
Oligonucleotide = CAACGAA; value = 0.233
Oligonucleotide = GAAUCGA; value = -0.0138
Oligonucleotide = UGUUCGG; value = -0.454
Oligonucleotide = UGCGCUG; value = -0.103
Oligonucleotide = UACACUG; value = -0.119
Oligonucleotide = AGAGAAG; value = 0.149
Oligonucleotide = CUUUGUU; value = -0.447
Oligonucleotide = AGUGAAU; value = -0.0518
Oligonucleotide = CUUACGC; value = -0.449
Oligonucleotide = AGCGGGA; value = 0.267
Oligonucleotide = GGCUCAU; value = 0.0497
Oligonucleotide = UAUACAG; value = 0.00979
Oligonucleotide = UCCCCAA; value = -0.237
Oligonucleotide = GAAGUGC; value = -0.146
Oligonucleotide = GUCUAUG; value = -0.307
Oligonucleotide = AUCUUAU; value = -0.26
Oligonucleotide = AUGUUGG; value = -0.235
Oligonucleotide = GUAUCUG; value = -0.175
Oligonucleotide = AACCCUU; value = -0.24
Oligonucleotide = UCGUGAA; value = -0.253
Oligonucleotide = GGCAAUU; value = 0.00979
Oligonucleotide = CACAGAU; value = -0.148
Oligonucleotide = ACUGACG; value = -0.164
Oligonucleotide = UCUUGGA; value = -0.2

Sample 3
Target: RNA binding protein fox-1 homolog 2, RRM domain, GST-SBP tag (RBFOX2, Homo sapiens, UniProt O43251-10, residues 100-194)
Technique: RNA Bind-n-Seq
Molecule type: RNA
Sample: in vitro
Tested at: 365 nM
Setting: natural RNA segment, single round, ends assumed
Relative to: no-protein control
Reading: higher = stronger binding
Quantity: RBNS enrichment (R)
Target sequence (chain): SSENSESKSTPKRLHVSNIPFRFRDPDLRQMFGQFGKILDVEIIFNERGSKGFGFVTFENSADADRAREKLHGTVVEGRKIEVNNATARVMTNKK
Oligonucleotide = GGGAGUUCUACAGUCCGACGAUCUCUUAGAACCAAGGGCCUCAUUAUGGUCACUCACAGCUCAGUUAUGGUCUUGCCCCAGCUGGCCCUGGCACAGGAGUUCUCUUACCUGGCUGGUGAGUGGCCUGUGUUAGUGGAAUUCUCGGGUGCCAA; value = 0.307
Oligonucleotide = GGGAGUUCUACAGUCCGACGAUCUGGGCUUCUGAAAGUUGCCAUCUUCCCUCCGUGGAGCUCCAUUUGCUAUUUUCAUUAUACACUAUGAGGUAAAAUGUAAUAACAAAAGAGAGAGAAGUACCACUGUGGCUUGGAAUUCUCGGGUGCCAA; value = 0.415
Oligonucleotide = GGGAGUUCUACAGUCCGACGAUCUUUUUUACAGUGACAACAGACAGUCCCUCGGUUUCAUGUCUUUUCGUAACCCUUUCAAUUGAACUGCCUGGAUUUUAUAUAAAGUUACUAAACGAUACCUUGUUCUUGGAUGGAAUUCUCGGGUGCCAA; value = 0.536
Oligonucleotide = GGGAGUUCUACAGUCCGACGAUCCCUUGCAAGAUACCGAUAUUCAAGCUGUUGACAUACUCGUUGCCUACUUUAACAACUGUCAGAGAAACGUGAUGGGGGUAAGGAGGUACUUUUUAAAAUCGUUCAUAGACUGGAAUUCUCGGGUGCCAA; value = 0.398
Oligonucleotide = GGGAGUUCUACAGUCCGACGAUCGUUGAGAAGGCUUAAUCUCCUGUUUACAGCCCACAAUGAUUCUGUCCCAUGGUGUCCUGGCUAUAUGACCUAAAAACCAGCCUUUCCUCCACAAGGCUUUGAGACACAUCUGGAAUUCUCGGGUGCCAA; value = 0.522
Oligonucleotide = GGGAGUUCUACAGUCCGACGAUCGUUAGAAUACAGUUCUCUGGCCACAGCUGAUGAGGGCUUUCUGUACUGCACACAGAUUGUGUACUGCACCCCAGUCCAGGUGACUGGUACCCACUCGAGUUGUGCCGUGCUGGAAUUCUCGGGUGCCAA; value = 0.809
Oligonucleotide = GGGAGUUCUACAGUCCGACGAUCACUAUAUAAGUAAAGCAAAUAUAUUAGGCCAGGAUCUCACUGAGGAAUUUGUCUUGUCAUCUUUUAGAGUAAACUAAAAAUUGUAUAGUGUCUGCAAACACUACCCUACCUGGAAUUCUCGGGUGCCAA; value = 0.583
Oligonucleotide = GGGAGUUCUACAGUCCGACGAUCGGACUCCCUAGUGCCCAUGCUGAGAUCUCAGCAUGUUCUAGAUGGGUCCUCUAGAGCACGGGUUUGGAGAAAUGACUGUUUUCAUGAAAGCACCAUUAGCACCACAGAAUUGGAAUUCUCGGGUGCCAA; value = 1.16
Oligonucleotide = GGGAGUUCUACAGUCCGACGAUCAAAGUAAACAGGCCAGAUGAACCUGAGGGAUAAUAGAUUACAAAGAAUAUAUUUUUGUUAUGGCUGGUUACCCCAGCUCUUUUUCCCCUUGUGUGUGUGGUUCAAGUGUGUGGAAUUCUCGGGUGCCAA; value = 0.473
Oligonucleotide = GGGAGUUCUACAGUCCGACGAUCUGGAUCCUGUGGGUGGAGUCAGCAGGAACAAAGGGUUUUCCAUGGUAUUGAUGCUACCUCAGGUCUCUAAGAUGCACAUGAGUCAGCACAGGUGGCACUGUCUCUCCCUUUGGAAUUCUCGGGUGCCAA; value = 0.938
Oligonucleotide = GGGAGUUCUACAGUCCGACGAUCUACUAAAAAGAUUCCUCGUUAUUGUUGUUGCCAAAGAGAAACAAAAAUGAUUUUGCUUUCCAAGCUUGGUUUGUGGCGUCUCCCUCGCAGAGCCCUUCUCGUUUCUUUUUUGGAAUUCUCGGGUGCCAA; value = 0.371
Oligonucleotide = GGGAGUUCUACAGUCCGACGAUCAUGGGAACGUGAAAUAUUGGUGCGAUCACUGAACCAAAGGGAUUGUGUUCUGUGACUUUGGUACUUUGUUUUGCAUUUUUGUUUCAUAUUAAAUACUUUCUUUCUGUUUGUGGAAUUCUCGGGUGCCAA; value = 1.3

Sample 4
Target: Ras GTPase-activating protein-binding protein 1, RRM domain (G3BP1, Homo sapiens, UniProt Q13283)
Chain of UniProt Q13283 (whole entry, looked up): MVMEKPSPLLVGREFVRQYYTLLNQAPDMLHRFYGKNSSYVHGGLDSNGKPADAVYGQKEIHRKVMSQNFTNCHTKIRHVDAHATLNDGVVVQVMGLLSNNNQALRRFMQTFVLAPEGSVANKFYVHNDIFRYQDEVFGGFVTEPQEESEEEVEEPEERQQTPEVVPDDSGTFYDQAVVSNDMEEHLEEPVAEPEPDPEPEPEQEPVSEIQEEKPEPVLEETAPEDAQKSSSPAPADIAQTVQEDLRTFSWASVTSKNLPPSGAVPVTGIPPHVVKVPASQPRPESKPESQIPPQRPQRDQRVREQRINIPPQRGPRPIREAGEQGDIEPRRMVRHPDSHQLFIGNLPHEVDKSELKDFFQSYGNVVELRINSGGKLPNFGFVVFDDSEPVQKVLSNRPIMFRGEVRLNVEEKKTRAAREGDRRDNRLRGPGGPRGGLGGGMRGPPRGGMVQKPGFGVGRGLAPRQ
Technique: RNA Bind-n-Seq
Molecule type: RNA
Sample: in vitro
Tested at: 1 µM
Setting: whole 134-nt RNA, ends assumed
Added: 150 mM KCl
Relative to: input library
Reading: higher = stronger binding
Quantity: log2 enrichment
Oligonucleotide = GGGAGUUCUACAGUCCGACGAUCUGACCUGCACGGACAUCAACACCCUGACAAGGCAGAAGGAACUUCUCCUGCAGAAGCUGAGCACAUUUGAGGAGACCAACCGCACCCUCCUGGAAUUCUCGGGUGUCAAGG; value = -0.184
Oligonucleotide = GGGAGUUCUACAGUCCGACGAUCUCCUGUGCUACACAUCGUAUGUACCGAAUCGGGGUUUUUGGUUUUUGGGGUUUUUGGGGAAAGUAUUAUGUUACGCCGUUCGGAUCUGCAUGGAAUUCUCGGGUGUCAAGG; value = -0.118
Oligonucleotide = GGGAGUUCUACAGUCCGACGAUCAAGUCCUGUGCUACACAUCGUAUGUACCGAAUCGGUUUUUUUGGUUUUUGGUUUGGAAAGUAUUAUGUUACGCCGUUCGGAUCUGCACUUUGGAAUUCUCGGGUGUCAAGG; value = -0.156
Oligonucleotide = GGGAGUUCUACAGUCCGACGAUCGCAGGAAGUAAAAACAAAUGGAAAUGCUUCGGAUAGUAAAAGGGGUGGGGGUUGCUAAGGAAAGGGUGGGAUGGGAGUGGGUAAAGAGUUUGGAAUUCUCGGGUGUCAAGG; value = 1.35
Oligonucleotide = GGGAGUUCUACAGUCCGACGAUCGAAAUUUGGUUAUGUGGAUUUUGAAUCUGCUGAAGACCUGGAGAAAGCGUUGGAACUCACUGGUUUGAAAGUCUUUGGCAAUGAAAUUAAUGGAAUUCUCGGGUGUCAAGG; value = -0.487
Oligonucleotide = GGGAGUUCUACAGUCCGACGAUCACCAUGCAGGUAGGCAUCUUUGGGAAGUGGGGCAAGGGGGGGAUAGGGAGGGGGGUAACACUUUGGGAACAGGUGGUCCCAGGUCGUUUCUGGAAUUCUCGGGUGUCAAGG; value = -0.456
Oligonucleotide = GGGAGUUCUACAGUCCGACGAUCACCAUGCAGGUGGAAAUCUUUGGGAAGUGGGGCAAGGGGGGGAUAGGGAGGGGGGUAACACUUUGGGAACAGGUGGUCCCAGGUCGUUUCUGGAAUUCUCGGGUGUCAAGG; value = -0.295
Oligonucleotide = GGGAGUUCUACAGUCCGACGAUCACCAUGCAGGUGGGCAUCUUUGGGAAGUGGGGCAAGGGGGGGAUAGGGAGGGGGGUAACACUUUGGGAACAGGUGGUCCCAGAUCGUUUCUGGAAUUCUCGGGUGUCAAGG; value = 0.744
Oligonucleotide = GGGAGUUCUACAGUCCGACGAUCCAAGUCCUGUGCUACACAUCGUAUGUACCGAAUCGGAAAGGUUUGGAAAAAAAGGAAAGUAUUAUGUUACGCCGUUCGGAUCUGCACUUCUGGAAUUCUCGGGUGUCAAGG; value = -0.169

Further values, each from its own experiment
P1: CABLES2 docking peptide (human); ICAKRSLCAAFSV; partner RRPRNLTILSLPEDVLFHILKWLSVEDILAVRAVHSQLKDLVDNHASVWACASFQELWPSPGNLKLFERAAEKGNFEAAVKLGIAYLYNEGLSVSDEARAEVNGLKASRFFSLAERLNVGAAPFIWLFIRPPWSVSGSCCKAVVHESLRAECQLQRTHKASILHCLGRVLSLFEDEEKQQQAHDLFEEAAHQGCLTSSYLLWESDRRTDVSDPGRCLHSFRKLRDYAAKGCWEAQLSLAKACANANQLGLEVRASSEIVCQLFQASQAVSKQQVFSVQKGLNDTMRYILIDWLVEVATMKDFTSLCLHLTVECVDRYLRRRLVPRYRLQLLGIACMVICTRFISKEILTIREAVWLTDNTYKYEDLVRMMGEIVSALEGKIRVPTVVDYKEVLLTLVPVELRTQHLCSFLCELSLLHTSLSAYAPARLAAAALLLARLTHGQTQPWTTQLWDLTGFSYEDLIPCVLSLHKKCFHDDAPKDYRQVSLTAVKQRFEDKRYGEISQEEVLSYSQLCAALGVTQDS
Molecule = P1 R5A; tested on = CCNF, cyclin fold, Cln2 fusion (human); test = yeast growth competition, sequencing; test system = yeast; setting = strong parent motif; scale = relative to: not given, higher = stronger binding; quantity = normalised enrichment score; value = 0.924
Molecule = PPVIIKYIIINRF; tested on = Saccharomyces cerevisiae; test = binding, competitive growth deep sequencing; test system = peptide, cyclin D3-Cln2 fusion strain; setting = concentration not given, peptide library 2; scale = direction not given; quantity = growth enrichment score; value = -0.114
